Results from different studies.
Parts stem from different laboratories: compare values within a part only.

Block 1
Target: Histone acetyltransferase KAT6A, winged helix 1, GST fusion (KAT6A, Homo sapiens, UniProt Q92794, residues 1-85)
Method: protein binding microarray
Form: double-stranded DNA, one strand shown
Medium: in vitro
Concentration: not given
Setting: 8-mer, flanks averaged, mean of 2 arrays, mostly near background
Baseline: not given
Reading: higher = stronger binding
Construct (chain): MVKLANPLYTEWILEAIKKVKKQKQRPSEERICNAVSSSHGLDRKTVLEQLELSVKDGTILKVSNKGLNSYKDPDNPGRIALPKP
Oligonucleotide	E-score
CCAACCCG	0.312
GATTCTGA	-0.0915
GCCTCGCC	0.0938
AAGCGTAA	0.154
CGCGGATA	0.331
AACGGCGG	0.424
ATAATCAG	-0.086
CCCGTTGC	0.277
AGCCTTTA	-0.0513
GCATTCAA	-0.201
GTGACGGA	0.0873
AGTGACCA	-0.287
TAGGTCAA	-0.265
ACTTGTTC	-0.114
CGGTTTCA	0.12
GCACATAA	-0.052
CGCTTGAA	0.0874
CATCTCCC	0.0872
ATGCGAGA	-0.0865
AATCTTAA	-0.117
AACTAGTG	-0.16
GTGACGAA	-0.0994
AGCCGCCC	0.347
GTTTTCAA	-0.0372
CTTCCTGA	-0.169

Block 2
Target: Interferon regulatory factor 5, full length, phosphomimetic (IRF5, Homo sapiens, UniProt Q13568-2, residues 1-514, K96S/S451D/S453D/S456D/S462D)
Method: protein-binding microarray
Form: double-stranded DNA, one strand shown
Medium: in vitro
Concentration: 250 nM
Setting: 60-bp whole probe
Together with: salmon DNA 0.4 mg/ml
Baseline: random background probes
Reading: higher = stronger binding
Shared flanks, not repeated: GCCTAGCAC … GTCTTGATTCGCTTGACGCTGCTG
Oligonucleotide	log fluorescence [z-score]
GACGAACTGGGGCATCGAGACGTGCTA	-0.455
TCAGTCCTCACTTCCTTACTGTGCTAG	0.318
ACCACTCCAGTTCTGGGAAAGTGCTAG	-0.292
CCGTAGCTTCCTTTCGCCGCGTGCTAG	1.38
GAGGGACTGGACTATCGGGACGTGCTA	0.496
TCCTGTATGGATGTGTCTTAGTGCTAG	-0.0889
TTAGATATCAATTTCGATTAGTGCTAG	7.96
TCAGTTTCCTCTTTCACACTGTGCTAG	2.95
GACGAACTGCTTTTCCTGACGTGCTAG	0.211
TTAGGTTTCGGTATAGGTTAGTGCTAG	10.8
TCATTTGTTTTTTTCTAACTGTGCTAG	1.44
GACGGTTTAGGTTCCGGGACGTGCTAG	0.172
TAAGATTTCGGGTTTCGATTAGTGCTA	8.03
AGAATTTCCACTTTGACTTAGTGCTAG	0.688
GACGGTTCCGGTTTAGGGACGTGCTAG	1.45
TCAATTTTTACATTATTACTGTGCTAG	1.34
TGCTCTCCGGGGTCTGTGAGGGTGCTA	-0.102
GACGGTTTCGGGTTTGGGGACGTGCTA	6.83
TTAGGTTTCCTTTCCCTCTAGTGCTAG	1.79
GACGGTCTCGGTTTCCGGACGTGCTAG	0.651
GTAGGTCTCGGACTGGGTTAGTGCTAG	-0.564
TTGGGACTGGGTATCGGTTAGTGCTAG	3.72
TCAGTGATCAGTCTGATACTGTGCTAG	-0.0245
GACGATTTCAGTTCCGAGAGGTGCTAG	1.29
CACGATATCAGTCTCGAGACGTGCTAG	1.1

Block 3
Target: Ras GTPase-activating protein-binding protein 1, full length (G3BP1, Homo sapiens, UniProt Q13283)
Sequence of UniProt Q13283 (whole entry, looked up): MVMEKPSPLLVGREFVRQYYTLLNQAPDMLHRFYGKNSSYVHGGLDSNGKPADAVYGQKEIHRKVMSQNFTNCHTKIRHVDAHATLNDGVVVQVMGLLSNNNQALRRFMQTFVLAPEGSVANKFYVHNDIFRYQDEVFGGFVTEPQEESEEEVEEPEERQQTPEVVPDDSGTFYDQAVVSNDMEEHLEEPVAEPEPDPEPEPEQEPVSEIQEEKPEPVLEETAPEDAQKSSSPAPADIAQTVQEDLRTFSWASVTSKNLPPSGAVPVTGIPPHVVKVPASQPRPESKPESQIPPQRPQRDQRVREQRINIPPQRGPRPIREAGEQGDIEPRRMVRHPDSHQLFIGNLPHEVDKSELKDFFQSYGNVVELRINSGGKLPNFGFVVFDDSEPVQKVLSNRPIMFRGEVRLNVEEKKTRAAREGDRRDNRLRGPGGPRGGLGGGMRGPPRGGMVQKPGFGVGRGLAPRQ
Method: RNA Bind-n-Seq
Form: RNA
Medium: in vitro
Concentration: 200 nM
Setting: whole 134-nt RNA, ends assumed
Together with: 150 mM LiCl
Baseline: input library
Reading: higher = stronger binding
All molecules: 7-deaza-guanosine replaces G
Shared flanks, not repeated: GGGAGUUCUACAGUCCGACGAUC … UGGAAUUCUCGGGUGUCAAGG
Oligonucleotide	log2 enrichment
UCCUCAAGUCCUGUGCUACACAUCGUAUGUACCGAAUCGGGCGGGCGGGCGGAAAGUAUUAUGUUACGCCGUUCGGAUCUGCACUUCCAG	0.801
AGUCCUGUGCUACACAUCGUAUGUACCGAAUCGGGUUUGGGAAAAAAAGGGUUUGGGAAAGUAUUAUGUUACGCCGUUCGGAUCUGCACU	-2.36
CCUGUGCUACACAUCGUAUGUACCGAAUCGGGAAAAAAAGGGAAAAAGGGAAAAAAAGGGAAAGUAUUAUGUUACGCCGUUCGGAUCUGC	0.0329
CCUGUGCUACACAUCGUAUGUACCGAAUCGGGGAAAAAGGGGUUUUUGGGGUUUUUGGGGAAAGUAUUAUGUUACGCCGUUCGGAUCUGC	-0.448
CACAGACAACACGCACCCACACAGACACAGAGAAAAGGGGUUGGGAUGGGGACAGGGUGCACAGCAGGGCGGGGUAGGACCCCAGCCCCU	0.823
ACCAUGCAGGUGGGCAUCUUUGGGAAGUGGGGCAAAAAGGGGAUAGGGAGGGGGGUAACACUUUGGGAACAGGUGGUCCCAGGUCGUUUC	0.539
CCUCAAGUCCUGUGCUACACAUCGUAUGUACCGAAUCGGAAGGAAGGAAGGGAAAGUAUUAUGUUACGCCGUUCGGAUCUGCACUUCCAG	0.275
AGUCCUGUGCUACACAUCGUAUGUACCGAAUCAAACCCAAAUUUUUAAACCCCCAAAAAAGUAUUAUGUUACGCCGUUCGGAUCUGCACU	1.59
AAGUCCUGUGCUACACAUCGUAUGUACCGAAUCAAAUUUUUAAACCCAAAUUUAAAAAAGUAUUAUGUUACGCCGUUCGGAUCUGCACUU	-2.31
UGAAAAUGCUUUCAUGUUAAUUGUGUACACACAUUUCAUCUGUAUCCCUGUUUCUUUUCUCCCUACAGAAACAUAUGAGGAUUUUGAUAC	0.651
AAGUCCUGUGCUACACAUCGUAUGUACCGAAUCGGUUUUUUUGGAGGAAAAAAAGGAAAGUAUUAUGUUACGCCGUUCGGAUCUGCACUU	-1.18

Block 4
Target: RNA binding protein fox-1 homolog 2, RRM domain, GST-SBP tag (RBFOX2, Homo sapiens, UniProt O43251-10, residues 100-194)
Method: RNA Bind-n-Seq
Form: RNA
Medium: in vitro
Concentration: 365 nM
Setting: natural RNA segment, single round, ends assumed
Baseline: no-protein control
Reading: higher = stronger binding
Shared flanks, not repeated: GGGAGUUCUACAGUCCGACGAUC … UGGAAUUCUCGGGUGCCAA
Residues (chain): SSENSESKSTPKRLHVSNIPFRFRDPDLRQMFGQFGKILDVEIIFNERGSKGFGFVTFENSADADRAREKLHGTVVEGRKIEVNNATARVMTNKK
Oligonucleotide	RBNS enrichment (R)
UCGGGAGGGAGGCAGGGGCAGGCGGAUUUCUAAAUUCCAGGACAGCCUGGGCUAUACAGAGAAACCCUGUCUUGAACCCCCCCCCCCCCCGCCACCCCCAAAAAAAGGUU	0.261
AAUACGUGGCAUUAUUCUUUUUUGGAUUUCUCAUUUAUGGAAGGCUAACCCUCUGUUGACUGUAAGCCUUUUGGUUUGGGCUGUAUUGAAAUCCUUUCUAAAUUGCAUGA	20
UUCCCUGGAUCUUCCCCCCACUCCUCACACCUCACAUGUCCCAGGAGCUGCCUUCAUUCAGGCGGGUAGCUGCACUGGGCAUGGGGUGGUGGUGGGAGCUUACCGCCACC	0.283
AGGGCAAGUUCUCAGUACAGCCACCUUUGGACCCUUCGCCUUUAUGGUUCCCCUGCCCUCUCCCAUCUUUGAUUGGCUUGGUAUUUGGAGCUUCUGUUAACAUUAUAGAG	0.35
CAGAAUCAACUCAGCCUCAGGCAUCCAAAGCCACACCACAGUCGGUGGUGAUGCAACUGGGGGCUUACUCUGAGGAAACCUAGGAAAUCUCGGUGCACUAGGAAGUGAAU	0.262
UUCUAGAAACCGCAGCUGACAUCUCGACCCAAGAGAUUUAGGAUUCUCCUGUUUCAUCUGGGUCAGUUUGGCCAUAAUUCUGGGGUCAGGCCAGGCCUGGGUCCUGCCCU	0.289
CCAAAUUGUGUAUAUAUCUUAUAACUGUUUUAGAAAUUGGUACAUAGGCUUCUAUUACCUAUUAGGUGGAAAUUUUAUAUGUAAAUGUGUUAGCACUGAUAGUCCUUUUU	0.607
AAGAUAUUUCAGUCUAGGAAAGAUUUUCCUUCUCUUGGAAUGUGAAGAUCUGUCGAUUCAUCUCCAAUCAUAUGCAUUGACAUACACAGCAAAGAAGAUAUAGGCAGUAA	0.374
GCAAGGGCACUCGUGGAGUAUGUGUCCUGGGUGAGGUGGCACCACACCGAAUGAAUGCAUCUCUGGGAGCUGGCACCACAACCCUGAUGUAUAGGCUGUGUUGGUUUAUG	0.73
GUUCCCUUAUUCUGGGGAUUACAAUGCUUUUAUCGUUUCAGGCUUCAUUUUAGCUUCAAAACAAGCUGGGCACACUGUUAAAUCAUGAUUUUGCAGAACCUUUGGUUUUG	0.321
UCUGAUGAAAUCUCUGAAAAAAAAUAAUAAUUUCACACCAUGGCUGCCCUAAAAGGAUCAUUUUAGUUUCUUUGAUUAACUUUCUCAGAACAGACCUCUCCAUUAUUCAU	0.471
UCAGGUUAAUGAUUUAUUUUUUGACUAAAUGUGCAAUUUCUUAUCACUAGAUAACUUUCAGUAUCAGUGGUGGUUACUUAUUACUUAAAUCAGAGGAAGGAUUUUAUAAA	0.449

Some of these lines once more (block 1):
Oligonucleotide	E-score
AGCCGCCC	0.347
GTGACGGA	0.0873
AACTAGTG	-0.16
AGCCTTTA	-0.0513
